Measured values gathered from unrelated publications.
Lines come from different studies, so protocols differ. ± marks the error that the study gave.
ABCB1: ATP-dependent translocase ABCB1 (ABCB1, Homo sapiens, UniProt P08183)
Chain of UniProt P08183 (whole entry, looked up): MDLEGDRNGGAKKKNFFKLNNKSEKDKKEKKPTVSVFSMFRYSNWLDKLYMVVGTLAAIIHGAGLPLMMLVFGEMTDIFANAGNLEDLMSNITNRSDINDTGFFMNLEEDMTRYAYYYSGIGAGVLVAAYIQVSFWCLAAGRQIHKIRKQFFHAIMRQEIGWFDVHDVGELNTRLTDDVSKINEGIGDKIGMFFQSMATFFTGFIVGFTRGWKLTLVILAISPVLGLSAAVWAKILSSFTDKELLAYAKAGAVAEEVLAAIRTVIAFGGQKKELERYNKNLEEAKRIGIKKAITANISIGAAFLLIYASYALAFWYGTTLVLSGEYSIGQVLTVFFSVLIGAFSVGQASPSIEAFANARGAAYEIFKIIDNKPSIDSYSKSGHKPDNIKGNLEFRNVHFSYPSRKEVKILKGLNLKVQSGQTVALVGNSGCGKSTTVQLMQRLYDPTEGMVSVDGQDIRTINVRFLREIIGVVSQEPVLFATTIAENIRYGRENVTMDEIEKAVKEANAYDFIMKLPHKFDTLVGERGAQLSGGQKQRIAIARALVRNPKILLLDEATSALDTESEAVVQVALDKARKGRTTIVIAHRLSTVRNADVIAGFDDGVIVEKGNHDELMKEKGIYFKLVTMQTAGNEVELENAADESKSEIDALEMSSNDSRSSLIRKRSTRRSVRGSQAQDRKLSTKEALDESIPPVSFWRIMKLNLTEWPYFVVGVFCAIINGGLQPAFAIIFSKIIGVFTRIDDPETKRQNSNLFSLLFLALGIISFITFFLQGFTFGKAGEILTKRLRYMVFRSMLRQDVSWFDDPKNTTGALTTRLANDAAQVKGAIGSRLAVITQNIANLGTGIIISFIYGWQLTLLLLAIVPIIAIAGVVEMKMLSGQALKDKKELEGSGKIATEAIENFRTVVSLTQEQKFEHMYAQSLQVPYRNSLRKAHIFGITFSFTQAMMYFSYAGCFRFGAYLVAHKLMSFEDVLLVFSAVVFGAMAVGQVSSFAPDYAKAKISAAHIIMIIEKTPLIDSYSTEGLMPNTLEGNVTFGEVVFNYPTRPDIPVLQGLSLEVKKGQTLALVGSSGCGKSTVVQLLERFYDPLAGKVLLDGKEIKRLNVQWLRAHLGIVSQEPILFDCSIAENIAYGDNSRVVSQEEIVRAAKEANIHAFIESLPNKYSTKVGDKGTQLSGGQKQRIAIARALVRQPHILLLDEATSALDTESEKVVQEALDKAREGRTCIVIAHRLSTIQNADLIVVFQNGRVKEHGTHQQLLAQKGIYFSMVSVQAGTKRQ
Chain of UniProt O60656 (whole entry, looked up): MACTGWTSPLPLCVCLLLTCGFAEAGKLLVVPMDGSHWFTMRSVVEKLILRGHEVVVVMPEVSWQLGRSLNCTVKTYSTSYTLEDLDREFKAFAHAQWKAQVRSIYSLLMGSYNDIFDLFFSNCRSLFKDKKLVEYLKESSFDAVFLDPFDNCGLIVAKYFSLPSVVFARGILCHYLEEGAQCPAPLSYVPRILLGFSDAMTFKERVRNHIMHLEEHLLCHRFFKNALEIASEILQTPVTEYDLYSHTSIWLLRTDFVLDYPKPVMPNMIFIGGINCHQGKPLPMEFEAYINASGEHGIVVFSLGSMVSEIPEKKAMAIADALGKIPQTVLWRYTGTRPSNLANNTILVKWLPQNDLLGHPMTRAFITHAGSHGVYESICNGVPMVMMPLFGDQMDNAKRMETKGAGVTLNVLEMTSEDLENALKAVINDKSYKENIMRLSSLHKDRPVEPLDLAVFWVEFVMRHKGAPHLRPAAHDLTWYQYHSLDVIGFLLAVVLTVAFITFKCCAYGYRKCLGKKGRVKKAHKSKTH
Chain of UniProt O43704 (whole entry, looked up): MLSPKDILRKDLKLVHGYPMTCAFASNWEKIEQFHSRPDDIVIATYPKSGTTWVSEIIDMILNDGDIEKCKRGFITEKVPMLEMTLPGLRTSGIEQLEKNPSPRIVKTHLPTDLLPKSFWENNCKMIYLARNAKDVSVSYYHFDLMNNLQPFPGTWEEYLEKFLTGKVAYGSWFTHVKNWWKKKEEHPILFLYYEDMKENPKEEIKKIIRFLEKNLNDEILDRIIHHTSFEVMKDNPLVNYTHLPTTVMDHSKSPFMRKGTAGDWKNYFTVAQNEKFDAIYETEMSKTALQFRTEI
Chain of UniProt Q14994 (whole entry, looked up): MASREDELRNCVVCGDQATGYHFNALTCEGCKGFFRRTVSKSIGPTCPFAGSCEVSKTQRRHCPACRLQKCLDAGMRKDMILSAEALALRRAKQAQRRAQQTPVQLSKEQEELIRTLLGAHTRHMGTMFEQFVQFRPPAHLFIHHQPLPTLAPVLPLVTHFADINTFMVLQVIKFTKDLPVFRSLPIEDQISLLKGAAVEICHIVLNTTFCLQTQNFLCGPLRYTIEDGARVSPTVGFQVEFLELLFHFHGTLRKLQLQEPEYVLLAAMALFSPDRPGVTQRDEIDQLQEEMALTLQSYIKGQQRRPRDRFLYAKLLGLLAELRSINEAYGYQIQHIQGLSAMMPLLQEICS
Chain of UniProt Q86VL8 (whole entry, looked up): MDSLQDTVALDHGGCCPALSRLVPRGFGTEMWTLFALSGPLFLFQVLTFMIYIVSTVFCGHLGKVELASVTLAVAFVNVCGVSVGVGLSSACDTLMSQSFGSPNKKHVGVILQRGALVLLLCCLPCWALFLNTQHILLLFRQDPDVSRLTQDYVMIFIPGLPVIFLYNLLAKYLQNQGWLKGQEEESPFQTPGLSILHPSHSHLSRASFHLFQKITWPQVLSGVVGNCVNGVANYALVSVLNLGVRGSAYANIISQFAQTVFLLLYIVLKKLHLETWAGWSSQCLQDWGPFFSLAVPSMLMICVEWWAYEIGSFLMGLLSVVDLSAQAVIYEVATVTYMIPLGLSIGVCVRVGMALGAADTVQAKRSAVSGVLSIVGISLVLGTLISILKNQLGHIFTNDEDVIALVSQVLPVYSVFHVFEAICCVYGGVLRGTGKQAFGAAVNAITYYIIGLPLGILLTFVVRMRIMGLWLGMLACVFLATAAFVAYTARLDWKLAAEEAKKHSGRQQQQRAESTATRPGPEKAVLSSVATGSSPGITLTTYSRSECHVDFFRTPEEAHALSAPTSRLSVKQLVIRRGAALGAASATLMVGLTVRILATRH

SMILES	target	test	test system	setting	how to read	quantity	value
CC[C@H](C)[C@H](NC(=O)[C@H](Cc1ccccc1)NC(=O)[C@H](CCC(=O)O)NC(=O)[C@H](CCCCNC(=O)COCCOCCNC(=O)COCCOCCNC(=O)CC[C@H](NC(=O)CCCCCCCCCCCCCCCCC(=O)O)C(=O)O)NC(=O)[C@H](C)NC(=O)[C@H](C)NC(=O)[C@H](CCC(N)=O)NC(=O)CNC(=O)[C@H](CCC(=O)O)NC(=O)[C@H](CC(C)C)NC(=O)[C@H](Cc1ccc(O)cc1)NC(=O)[C@H](CO)NC(=O)[C@H](CO)NC(=O)[C@@H](NC(=O)[C@H](CC(=O)O)NC(=O)[C@H](CO)NC(=O)[C@@H](NC(=O)[C@H](Cc1ccccc1)NC(=O)[C@@H](NC(=O)CNC(=O)[C@H](CCC(=O)O)NC(=O)C(C)(C)NC(=O)[C@@H](N)Cc1cnc[nH]1)[C@@H](C)O)[C@@H](C)O)C(C)C)C(=O)N[C@@H](C)C(=O)N[C@@H](Cc1c[nH]c2ccccc12)C(=O)N[C@@H](CC(C)C)C(=O)N[C@H](C(=O)N[C@@H](CCCNC(=N)N)C(=O)NCC(=O)N[C@@H](CCCNC(=N)N)C(=O)NCC(=O)O)C(C)C	Albumin (ALB, Homo sapiens, UniProt P02768)	binding	–	14.8 µM, 2 h	–	unbound fraction	4.6%
Oc1cc(O)c2c(c1)O[C@H](c1cc(O)c(O)c(O)c1)[C@H](O)C2	UGT1A9 (Homo sapiens, UniProt O60656)	substrate	–	pH 7.4, 37 °C	–	Km	135 µM
CC(C)[C@H](N)c1nc(C(=O)N[C@H](c2nc(C(=O)O)cs2)C(C)C)cs1	ABCB1	Bodipy-FL-prazosin efflux, flow cytometry	HeLa transduced with BacMam ABCB1	20 µM, 45 min, 5% FBS	reference: 1 µM tariquidar	inhibition	9%
O=C(C1CCCCC1)N1CCN(c2cc(-c3ccccc3)nc3cc(-c4cccc(Cl)c4)nn23)CC1	ABCB1	JC-1 efflux, inhibitor	Jurkat-DNR	–	–	IC50	3.31 ± 1.86 µM
CCCN(CCC)S(=O)(=O)c1ccc(C(=O)O)cc1	SLC47A2 (Homo sapiens, UniProt Q86VL8)	transport, inhibitor	HEK cells transfected with SLC47A2	0.5 min, with: baricitinib 0.25 µM	–	IC50	> 200 µM
CC[C@H](C)[C@H](NC(=O)[C@H](Cc1ccc(O)cc1)NC(=O)[C@@H](NC(=O)[C@@H](N)CCCN=C(N)N)C(C)C)C(=O)N[C@@H](Cc1c[nH]cn1)C(=O)N1CCC[C@H]1C(=O)N[C@@H](Cc1ccccc1)C(=O)O	trypsin	substrate, LC-MS	–	20 µM, 4 h, pH 7.4, with: Aβ1-28 10 µM, MINP(A)	–	peptide hydrolysed	7.4 ± 1.8%
Clc1ccc(CCNCc2c(-c3ccc4ccccc4c3)nc3sccn23)cc1Cl	Nuclear receptor subfamily 1 group I member 3 (Homo sapiens, UniProt Q14994)	reporter gene, agonist	HepG2-CYP2B6 cells	unit not given	reference: CITCO	Emax	3.6
COc1ccc([C@@H]2CC(=O)c3c(O)cc(O)cc3O2)cc1O	SULT1B1 (Homo sapiens, UniProt O43704)	substrate	–	10 µM	–	specific activity	3.28 ± 0.96 nmol/min/mg
Cc1nc2c([nH]1)c(=O)n(C)c(=O)n2Cc1ccco1	mitochondrial cytochrome P450 rat	inhibitor	–	20 µM, 60 min, pH 7.4	–	inhibition	64%
O=C(NCCCN1CCOCC1)c1cnn2c(-c3ccccc3)cc(-c3ccccc3)nc12	ABCB1	JC-1 efflux, inhibitor	Jurkat-DNR	–	–	IC50	4.41 µM
CC[C@H](C)[C@H](NC(=O)[C@H](CCC(=O)O)NC(=O)[C@H](CO)NC(=O)[C@@H](NC(=O)[C@@H](N)CO)C(C)C)C(=O)N[C@@H](CCC(N)=O)C(=O)N[C@@H](CC(C)C)C(=O)N[C@@H](CCSC)C(=O)N[C@@H](Cc1cnc[nH]1)C(=O)N[C@@H](CC(N)=O)C(=O)N[C@@H](CC(C)C)C(=O)NCC(=O)N[C@@H](CCCCN)C(=O)N[C@@H](Cc1cnc[nH]1)C(=O)N[C@@H](CC(C)C)C(=O)N[C@@H](CC(N)=O)C(=O)N[C@@H](CO)C(=O)N[C@@H](CCSC)C(=O)N[C@@H](CCC(=O)O)C(=O)N[C@@H](CCCN=C(N)N)C(=O)N[C@H](C(=O)N[C@@H](CCC(=O)O)C(=O)N[C@@H](Cc1c[nH]c2ccccc12)C(=O)N[C@@H](CC(C)C)C(=O)N[C@@H](CCCN=C(N)N)C(=O)N[C@@H](CCCCN)C(=O)N[C@@H](CCCCN)C(=O)N[C@@H](CC(C)C)C(=O)N[C@@H](CCC(N)=O)C(=O)N[C@@H](CC(=O)O)C(=O)N[C@H](C(=O)N[C@@H](Cc1cnc[nH]1)C(=O)N[C@@H](CC(N)=O)C(=O)N[C@@H](Cc1ccccc1)C(=O)O)C(C)C)C(C)C	chymotrypsin (bovine)	–	–	30 min, pH 6.5, 37 °C, with: soybean trypsin inhibitor 25.1 mg	–	remaining intact compound	39%
CC(=O)N1CCN(c2cc(-c3ccco3)nc3cc(-c4ccccc4)nn23)CC1	ABCB1	JC-1 efflux, inhibitor	Jurkat-DNR	–	–	IC50	3.64 µM
CCOC(=O)c1csc([C@@H](NC(=O)c2csc([C@@H](NC(=O)c3csc([C@@H](NC(=O)OC(C)(C)C)C(C)C)n3)C(C)C)n2)C(C)C)n1	ABCB1	calcein-AM efflux, flow cytometry	HeLa transduced with BacMam ABCB1	10 µM, 10 min, 5% FBS, with: calcein-AM 0.5 µM	reference: 1 µM tariquidar	inhibition	98%
O=C(c1ccoc1)N1CCN(c2cc(-c3ccccc3)nc3cc(-c4ccc(Br)cc4)nn23)CC1	ABCB1	JC-1 efflux, inhibitor	Jurkat-DNR	–	–	IC50	1.31 ± 0.35 µM
Cc1ccc(Nc2nccc(N(C)c3ccc4c(C)n(C)nc4c3)n2)cc1S(N)(=O)=O	ABCB1	bidirectional transport	MDCK-MDR1	5 µM, 240 min, with: erlotinib 5 µM	–	Papp B-A	3.91 ± 0.12 ×10⁻⁶ cm/s
